{"data": "Experimental data collected from several papers", "note": "A part holds a random share of what one study measured."}
{"data": "Sample 1", "target": "Interferon regulatory factor 7, full length, phosphomimetic (IRF7, Homo sapiens, UniProt Q92985, residues 1-503, S471D/S472D/S475D/S476D/S477D/S483D/S484D/S487D)", "technique": "protein-binding microarray", "form": "double-stranded DNA, one strand shown", "medium": "in vitro", "concentration": "2200 nM top", "setting": "60-bp whole probe", "added": "salmon DNA 0.4 mg/ml", "relative to": "random background probes", "reading": "higher = stronger binding", "all sequences stand within": "GCCTAGCAC … GTCTTGATTCGCTTGACGCTGCTG", "sequence of UniProt Q92985 (whole entry, unmodified, looked up)": "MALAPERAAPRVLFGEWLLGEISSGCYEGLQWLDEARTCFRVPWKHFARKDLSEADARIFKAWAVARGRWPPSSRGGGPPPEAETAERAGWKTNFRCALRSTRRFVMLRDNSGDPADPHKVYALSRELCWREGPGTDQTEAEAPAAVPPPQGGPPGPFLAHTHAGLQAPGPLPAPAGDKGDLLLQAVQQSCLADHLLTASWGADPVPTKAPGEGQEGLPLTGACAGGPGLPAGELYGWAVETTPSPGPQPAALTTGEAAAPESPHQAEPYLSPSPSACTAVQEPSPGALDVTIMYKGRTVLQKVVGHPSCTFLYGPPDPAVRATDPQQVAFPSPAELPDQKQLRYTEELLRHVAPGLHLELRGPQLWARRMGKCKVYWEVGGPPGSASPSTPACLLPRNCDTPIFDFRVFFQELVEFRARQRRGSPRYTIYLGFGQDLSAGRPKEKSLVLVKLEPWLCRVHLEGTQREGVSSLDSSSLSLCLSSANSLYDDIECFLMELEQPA"}
{"Oligonucleotide": "ATTTTTTTTAGTGGATGAAAGTGCTAG", "fitted relative affinity [z-score]": 0.334}
{"Oligonucleotide": "TCACTTCTTTTTTTTCTACTGTGCTAG", "fitted relative affinity [z-score]": 2.51}
{"Oligonucleotide": "GACGGTTTCGGTTTCAGGACGTGCTAG", "fitted relative affinity [z-score]": 13.2}
{"Oligonucleotide": "GACGATATCGGGTATCGGGACGTGCTA", "fitted relative affinity [z-score]": -0.0593}
{"Oligonucleotide": "GACGAACTGAGTCTCGAGCCGTGCTAG", "fitted relative affinity [z-score]": 0.0319}
{"Oligonucleotide": "CCACTCTTGCTTTTTAGATCGTGCTAG", "fitted relative affinity [z-score]": 1.89}
{"data": "Sample 2", "target": "RING finger protein unkempt homolog, zinc fingers 1-6, GST-SBP tag (UNK, Homo sapiens, UniProt Q9C0B0, residues 30-357)", "technique": "RNA Bind-n-Seq", "form": "RNA", "medium": "in vitro", "concentration": "not given", "setting": "RNA with constant flanks, human-mouse chimeric sites, ends assumed", "relative to": "input RNA pool", "reading": "higher = stronger binding", "sequence of UniProt Q9C0B0 (30-357, looked up)": "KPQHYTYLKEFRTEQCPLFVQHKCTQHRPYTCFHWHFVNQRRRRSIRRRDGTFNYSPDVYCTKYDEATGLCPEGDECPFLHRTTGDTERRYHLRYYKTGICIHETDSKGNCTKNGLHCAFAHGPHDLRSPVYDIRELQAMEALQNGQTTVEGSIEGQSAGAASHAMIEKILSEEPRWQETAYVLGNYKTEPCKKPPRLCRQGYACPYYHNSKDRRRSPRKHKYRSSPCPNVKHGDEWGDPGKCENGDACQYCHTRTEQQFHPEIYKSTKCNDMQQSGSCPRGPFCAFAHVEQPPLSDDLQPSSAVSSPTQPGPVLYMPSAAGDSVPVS"}
{"Oligonucleotide": "GGGAGUUCUACAGUCCGACGAUCGAAACAUUUAAAUUUAAAGAAGCUGUUGUUCUAGGAAGCACGGACUUUCUAGAAGAUGAUAUAGAGAAAAUUGUAGAAGAACUGGGGAAAGAGUAUAAAGGCAAUGCCUACCAUCUGAUGCAACAGAGGAUUGAGCAUCA", "bound/input enrichment": "1.34 ratio"}
{"Oligonucleotide": "GGGAGUUCUACAGUCCGACGAUCAAAGUGAUGACUAUGUUUGUCCAACGACAGGUAUUUUCGGAGAGCAAAGAUGAGAUUGCGUUAGUCCUGUUUGGUACAGAUGGCACUGAUAAUGCCCUUUCUGGUGGGGACCAGUAUCAGCAACAGAGGAUUGAGCAUCA", "bound/input enrichment": "0.28 ratio"}
{"Oligonucleotide": "GGGAGUUCUACAGUCCGACGAUCAGUACUGACUCAGGCGGUCCCACAACAACCAAGCUCACAGCAGCAGCAUCUUAGUCACAGUAGGGUAGUUUUGGGGCUCUGUGGCCAGGGUUUUAUUCACAUGCAGGUUUGGAAAAUGUACAACAGAGGAUUGAGCAUCA", "bound/input enrichment": "1.47 ratio"}
{"Oligonucleotide": "GGGAGUUCUACAGUCCGACGAUCGGAAGUACAUUAAUGGAGAUUGAUGGUGACAAAGGCAAGCAGGGCGGGCCCACCUACUACAUAGACACCAAUGCCCUCCGCGUGCCCAGGGAGAACAUGGAGGCCAUCUCACCACUCAAGCAACAGAGGAUUGAGCAUCA", "bound/input enrichment": "0.308 ratio"}
{"data": "Sample 3", "target": "RNA binding protein fox-1 homolog 2, RRM domain, GST-SBP tag (RBFOX2, Homo sapiens, UniProt O43251-10, residues 100-194)", "technique": "RNA Bind-n-Seq", "form": "RNA", "medium": "in vitro", "concentration": "365 nM", "setting": "natural RNA segment, single round, ends assumed", "relative to": "no-protein control", "reading": "higher = stronger binding", "all sequences stand within": "GGGAGUUCUACAGUCCGACGAUC … UGGAAUUCUCGGGUGCCAA", "Target sequence (chain)": "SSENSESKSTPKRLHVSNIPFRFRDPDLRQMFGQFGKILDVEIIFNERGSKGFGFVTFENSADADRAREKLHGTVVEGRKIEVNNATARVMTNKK"}
{"Oligonucleotide": "CUUCUCUCUCUGGUCAGGCCCACUGCAGAGAUGGUGGUGAGCACAUCUGGGAGGCUGGUCUCCCUCCAGCUGGAAUUGCUGCUCUCUGAGGGAGAGGCUGUGGUGGCUGU", "RBNS enrichment (R)": 0.485}
{"Oligonucleotide": "UGAGGCUACCCAGAGCCGGCGGGAGGACAGGAGACUGUGGGAUGUGGUCCAGGGGCCGCGGAGUGGUUUGGGGGGGAAAAGAGAUUUUUUUCUUCUCUUAAUGGGAAUCG", "RBNS enrichment (R)": 0.638}
{"Oligonucleotide": "UGACAGUAUUAUGUAAUUUUUAGCGUGGGUAGAUGGGAGUGUCGCUUGUAUGUUACCAUACAGCUGACAUGUAUUUUUUGUCUAUUCUUUAUUAUCUUAGUAGUUUCAUG", "RBNS enrichment (R)": 0.289}
{"Oligonucleotide": "ACCCAGUAGAGCUUGAAGCUGACCUUUCUGAGAAGUUGGUAUGGUGUAACACUAAAGUAGGUGGUUCGUGUGUGUUCUCAUUACCUGGUUAUGAUAGAUAUGCACAUCAA", "RBNS enrichment (R)": 0.495}
{"Oligonucleotide": "AAACACAGACAGAUCCAAGGAAAUGUCUCUUUAUAAUGUUCUUAGGAUGGACUAGACCCAUAAAUGUGCCAUGAAUCAAAAUAUUAAUAAUUUGAAAGCUUUCAUGCUGU", "RBNS enrichment (R)": 0.541}
{"Oligonucleotide": "UACCUAUCUAAUGUGCUAUGUUUAUCAAAUCGUGUACUAAAAUGGAAAGCUAGUUUUGAGAAAUUAUUCAGAAGCCUUGUUAUUUUAAAAAUGAAAUAUUUCAAAGACUG", "RBNS enrichment (R)": 2.48}
{"Oligonucleotide": "GUAUGUGAGUGUCUGGAGACAGCAUAGCUGACCCCAAUCCCCCAGGGCUGAGGACCCCUCCAGGCCCCUCUCUCCUGGAAGUGCUGCAUAUGCCCCUGUGCCCAGUGGUU", "RBNS enrichment (R)": 0.5}
{"Oligonucleotide": "CUGUGCUGAGGGAGCCUGAGUGGGAGACCGCCAGCCCCAGAAGCAGAGGGCAGUCAAGGUCAAGAGCCUGUGGUCCAGCAUGCCUGGCCUGGGCGGGCUACCUCUGAGAA", "RBNS enrichment (R)": 0.373}
{"data": "Other studies, line by line"}
{"Substance": "PhoQ, residues 284 288 289 292 302 303 TSTLRA", "target": "PhoP, residues 12 14 15 18 19 TQALL (Escherichia coli, UniProt P23836)", "test": "Sort-seq, measured: YFP reporter", "test system": "E. coli", "conditions": "PhoQ-PhoP variant library, added: 10 µM Mg2+", "scale": "relative to: high Mg2+ state, higher = stronger signaling", "endpoint": "fold induction", "value": 13.3}
{"note": "A few entries again (sample 1):"}
{"Oligonucleotide": "GACGGTTTCGGTTTCAGGACGTGCTAG", "fitted relative affinity [z-score]": 13.2}
{"Oligonucleotide": "GACGATATCGGGTATCGGGACGTGCTA", "fitted relative affinity [z-score]": -0.0593}
